Published values gathered from unrelated publications.
Each line is one published result; not all experiments were run side by side.
PFF0160c E182D: Dihydroorotate dehydrogenase (quinone), mitochondrial (PFF0160c, Plasmodium falciparum, UniProt Q08210, E182D)
TMPRSS2: Transmembrane protease serine 2 (TMPRSS2, Homo sapiens, UniProt O15393)
Chain of UniProt O15393 (whole entry, looked up): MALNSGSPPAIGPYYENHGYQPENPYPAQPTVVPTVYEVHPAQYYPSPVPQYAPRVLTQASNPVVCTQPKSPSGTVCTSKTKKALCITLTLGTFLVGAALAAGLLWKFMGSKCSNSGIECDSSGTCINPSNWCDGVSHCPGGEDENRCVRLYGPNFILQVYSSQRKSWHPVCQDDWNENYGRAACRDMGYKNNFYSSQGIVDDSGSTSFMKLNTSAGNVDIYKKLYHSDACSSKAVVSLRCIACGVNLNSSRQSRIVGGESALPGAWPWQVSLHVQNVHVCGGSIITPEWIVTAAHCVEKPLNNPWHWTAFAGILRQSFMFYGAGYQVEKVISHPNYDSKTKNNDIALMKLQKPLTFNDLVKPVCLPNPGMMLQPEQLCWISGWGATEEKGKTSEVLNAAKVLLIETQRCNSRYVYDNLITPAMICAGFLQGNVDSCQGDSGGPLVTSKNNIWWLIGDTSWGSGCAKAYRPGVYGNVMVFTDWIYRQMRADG
CTSL: Procathepsin L (CTSL, Homo sapiens, UniProt P07711)
Chain of UniProt P07711 (whole entry, looked up): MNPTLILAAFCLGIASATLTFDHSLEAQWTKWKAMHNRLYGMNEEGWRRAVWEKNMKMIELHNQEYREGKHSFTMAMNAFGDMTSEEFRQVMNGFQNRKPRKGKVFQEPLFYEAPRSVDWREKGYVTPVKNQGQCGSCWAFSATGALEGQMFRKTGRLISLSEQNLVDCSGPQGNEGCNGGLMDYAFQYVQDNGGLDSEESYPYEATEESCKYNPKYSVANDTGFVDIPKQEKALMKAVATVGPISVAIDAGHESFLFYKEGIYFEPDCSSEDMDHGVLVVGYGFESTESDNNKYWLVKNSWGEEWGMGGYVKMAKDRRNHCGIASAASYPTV
Chain of UniProt O43318 (whole entry, looked up): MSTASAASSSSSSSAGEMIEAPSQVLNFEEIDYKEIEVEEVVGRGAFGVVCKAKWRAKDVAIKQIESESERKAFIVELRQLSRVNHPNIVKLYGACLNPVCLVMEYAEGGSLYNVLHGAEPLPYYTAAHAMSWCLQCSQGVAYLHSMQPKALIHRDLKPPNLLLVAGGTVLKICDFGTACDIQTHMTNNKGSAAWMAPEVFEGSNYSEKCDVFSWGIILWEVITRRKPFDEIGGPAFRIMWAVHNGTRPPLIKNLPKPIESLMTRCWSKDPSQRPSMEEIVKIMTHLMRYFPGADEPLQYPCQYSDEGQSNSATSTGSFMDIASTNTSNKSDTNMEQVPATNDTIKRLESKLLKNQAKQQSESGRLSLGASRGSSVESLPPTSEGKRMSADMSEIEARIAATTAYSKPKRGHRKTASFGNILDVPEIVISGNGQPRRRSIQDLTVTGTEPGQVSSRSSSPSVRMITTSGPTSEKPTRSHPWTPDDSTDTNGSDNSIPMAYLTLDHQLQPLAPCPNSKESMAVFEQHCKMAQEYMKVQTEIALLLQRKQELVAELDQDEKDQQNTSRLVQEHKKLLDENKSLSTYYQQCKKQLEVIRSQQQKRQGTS
Chain of UniProt P22303 (whole entry, looked up): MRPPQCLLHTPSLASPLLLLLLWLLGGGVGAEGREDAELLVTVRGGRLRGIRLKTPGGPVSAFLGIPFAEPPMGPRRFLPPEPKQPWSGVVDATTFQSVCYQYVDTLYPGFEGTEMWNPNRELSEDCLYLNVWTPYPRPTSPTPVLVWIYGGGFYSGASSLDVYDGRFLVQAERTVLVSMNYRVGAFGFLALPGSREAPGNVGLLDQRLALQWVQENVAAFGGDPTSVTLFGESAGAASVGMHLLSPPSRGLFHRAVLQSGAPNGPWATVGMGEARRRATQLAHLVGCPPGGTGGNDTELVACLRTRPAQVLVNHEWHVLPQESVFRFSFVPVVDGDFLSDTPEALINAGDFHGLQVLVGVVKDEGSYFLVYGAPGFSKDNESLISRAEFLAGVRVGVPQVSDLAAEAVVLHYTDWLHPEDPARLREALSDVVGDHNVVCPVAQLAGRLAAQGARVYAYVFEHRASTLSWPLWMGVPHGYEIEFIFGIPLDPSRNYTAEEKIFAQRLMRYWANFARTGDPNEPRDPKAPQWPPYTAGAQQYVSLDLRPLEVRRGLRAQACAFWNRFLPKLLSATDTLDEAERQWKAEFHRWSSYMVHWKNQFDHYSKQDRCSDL
Chain of UniProt P41143 (whole entry, looked up): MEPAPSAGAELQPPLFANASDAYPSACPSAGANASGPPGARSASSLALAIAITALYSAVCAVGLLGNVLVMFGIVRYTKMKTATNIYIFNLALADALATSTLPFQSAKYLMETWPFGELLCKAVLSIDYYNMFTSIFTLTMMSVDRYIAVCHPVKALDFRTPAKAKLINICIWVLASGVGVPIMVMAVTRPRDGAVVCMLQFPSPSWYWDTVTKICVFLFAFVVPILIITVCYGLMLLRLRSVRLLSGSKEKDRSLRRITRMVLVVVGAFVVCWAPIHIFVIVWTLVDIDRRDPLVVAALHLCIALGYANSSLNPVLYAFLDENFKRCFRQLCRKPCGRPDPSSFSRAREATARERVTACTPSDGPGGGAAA
Chain of UniProt P21554 (whole entry, looked up): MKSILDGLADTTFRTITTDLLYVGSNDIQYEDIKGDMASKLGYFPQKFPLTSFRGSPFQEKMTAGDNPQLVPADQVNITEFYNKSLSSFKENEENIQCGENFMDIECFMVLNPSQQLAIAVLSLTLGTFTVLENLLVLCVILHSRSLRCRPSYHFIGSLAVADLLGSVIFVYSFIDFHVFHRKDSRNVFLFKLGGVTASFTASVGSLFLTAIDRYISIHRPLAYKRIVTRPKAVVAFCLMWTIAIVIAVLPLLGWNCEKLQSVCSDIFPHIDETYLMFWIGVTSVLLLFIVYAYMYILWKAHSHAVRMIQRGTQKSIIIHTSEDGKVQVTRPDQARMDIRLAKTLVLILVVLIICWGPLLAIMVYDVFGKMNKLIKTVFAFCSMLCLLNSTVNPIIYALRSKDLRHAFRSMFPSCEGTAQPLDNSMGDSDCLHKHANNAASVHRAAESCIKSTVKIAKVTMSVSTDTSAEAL
Chain of UniProt P41144 (whole entry, looked up): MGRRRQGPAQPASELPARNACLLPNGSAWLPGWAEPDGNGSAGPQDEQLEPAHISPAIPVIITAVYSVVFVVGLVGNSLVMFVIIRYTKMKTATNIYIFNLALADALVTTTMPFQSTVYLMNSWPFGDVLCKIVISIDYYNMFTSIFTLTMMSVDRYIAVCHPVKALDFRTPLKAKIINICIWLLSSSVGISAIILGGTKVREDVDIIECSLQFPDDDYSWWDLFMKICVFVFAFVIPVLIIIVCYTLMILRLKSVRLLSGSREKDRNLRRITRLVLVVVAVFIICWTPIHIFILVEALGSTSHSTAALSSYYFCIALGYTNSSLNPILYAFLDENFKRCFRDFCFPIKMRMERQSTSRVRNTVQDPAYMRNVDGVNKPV
Chain of UniProt P08069 (whole entry, looked up): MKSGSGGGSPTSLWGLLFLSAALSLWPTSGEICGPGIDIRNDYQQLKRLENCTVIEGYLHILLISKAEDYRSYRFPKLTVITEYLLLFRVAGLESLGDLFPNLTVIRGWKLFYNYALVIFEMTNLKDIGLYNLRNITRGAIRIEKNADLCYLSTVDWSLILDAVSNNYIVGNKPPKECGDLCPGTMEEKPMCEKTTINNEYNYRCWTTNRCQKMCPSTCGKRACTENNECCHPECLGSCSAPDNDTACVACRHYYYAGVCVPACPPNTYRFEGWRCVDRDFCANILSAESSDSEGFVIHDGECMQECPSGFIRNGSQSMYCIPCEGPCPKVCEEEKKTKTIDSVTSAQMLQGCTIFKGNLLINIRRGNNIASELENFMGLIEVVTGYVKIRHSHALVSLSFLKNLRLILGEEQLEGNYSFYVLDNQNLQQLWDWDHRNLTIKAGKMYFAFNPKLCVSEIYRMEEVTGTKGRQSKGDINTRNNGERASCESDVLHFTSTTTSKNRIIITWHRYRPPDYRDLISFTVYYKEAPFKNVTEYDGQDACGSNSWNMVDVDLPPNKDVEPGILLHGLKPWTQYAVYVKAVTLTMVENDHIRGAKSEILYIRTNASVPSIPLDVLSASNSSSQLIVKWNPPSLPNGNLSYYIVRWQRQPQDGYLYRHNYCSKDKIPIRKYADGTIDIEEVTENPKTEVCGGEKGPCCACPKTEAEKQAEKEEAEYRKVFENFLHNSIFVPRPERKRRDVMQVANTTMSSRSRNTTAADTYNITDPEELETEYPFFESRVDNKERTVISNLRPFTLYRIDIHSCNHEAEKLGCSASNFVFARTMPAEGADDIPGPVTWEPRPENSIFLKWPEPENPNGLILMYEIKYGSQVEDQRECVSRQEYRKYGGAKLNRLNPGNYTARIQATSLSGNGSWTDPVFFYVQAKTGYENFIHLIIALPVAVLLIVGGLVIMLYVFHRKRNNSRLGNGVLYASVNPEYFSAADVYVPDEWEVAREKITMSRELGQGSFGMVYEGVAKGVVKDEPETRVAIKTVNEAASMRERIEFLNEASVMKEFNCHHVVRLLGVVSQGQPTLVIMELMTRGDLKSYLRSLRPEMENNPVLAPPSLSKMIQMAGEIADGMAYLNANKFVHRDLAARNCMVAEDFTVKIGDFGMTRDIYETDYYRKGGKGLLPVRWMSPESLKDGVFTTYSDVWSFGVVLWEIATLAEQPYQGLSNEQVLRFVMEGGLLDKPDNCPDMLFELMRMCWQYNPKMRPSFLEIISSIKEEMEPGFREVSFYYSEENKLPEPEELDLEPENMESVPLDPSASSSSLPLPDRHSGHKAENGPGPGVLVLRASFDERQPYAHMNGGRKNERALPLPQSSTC
Chain of UniProt P00374 (whole entry, looked up): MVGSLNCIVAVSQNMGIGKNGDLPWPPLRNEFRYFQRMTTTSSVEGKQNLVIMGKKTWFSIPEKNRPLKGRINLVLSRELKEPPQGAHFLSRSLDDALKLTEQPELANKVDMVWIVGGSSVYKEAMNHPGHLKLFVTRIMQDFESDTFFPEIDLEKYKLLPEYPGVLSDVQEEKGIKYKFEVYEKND

| Structure (SMILES) | target or system | test | test system | setting | endpoint | value |
| --- | --- | --- | --- | --- | --- | --- |
| COC(=O)c1cc(-c2cccc(NC(=S)Nc3cc(C(F)(F)F)cc(C(F)(F)F)c3)c2)on1 | Mycolicibacterium fortuitum | microbial growth, broth dilution | ATCC6841 | 48 h | MIC | > 64 µg/mL |
| OC[C@H]1CNCCN1C[C@@H]1CCCN1C[C@H](CC1CCCCC1)N1CCN(CCc2ccc(Cl)c(Cl)c2)[C@H](Cc2ccc(O)cc2)C1 | OPRK1 (Cavia porcellus, UniProt P41144) | ligand displacement, radioligand |  | 0.5 µM, pH 7.5 | remaining binding | 110% |
| CCCCC/C=C\[C@H](C)/C=C\C/C=C\Cc1ccccc1CCCC(=O)N[C@H](C)CO | CNR1 (Homo sapiens, UniProt P21554) | β-arrestin recruitment, agonist |  |  | Emax | 28% |
| Cc1ccc(N2CCc3c(-c4cc5cccnc5nc4C)cc(C)nc32)c(Cl)c1 | PFF0160c E182D | enzyme activity, inhibitor, absorbance |  |  | IC50 | 76.9 nM |
| COc1ncccc1-c1cnn2ccc(N3CCN(C(=O)OC(C)C)CC3)nc12 | MAP3K7 (Homo sapiens, UniProt O43318) | binding, competition with immobilised ligand |  | 1 µM | remaining binding | 100% |
| CC(C)CC(=O)OC[C@H]1O[C@@](C#N)(c2ccc3c(N)ncnn23)[C@H](O)[C@@H]1O | HRH1 (Homo sapiens, UniProt P35367) | cell-free assay |  | 20 µM | inhibition | -5% |
| N=C(N)NCCC[C@H](NC(=O)[C@H](Cc1ccsc1)NC(=O)[C@H](Cc1ccc(O)cc1)NC(=O)[C@@H](N)Cc1ccc(O)cc1)C(=O)c1nc2ccccc2s1 | TMPRSS2 | enzyme activity, inhibitor |  | 1 nM | activity vs control | 97% |
| Cc1nc(Nc2ccc(C)c(Cl)c2)c2c(C)noc2n1 | PFF0160c E182D | enzyme activity, inhibitor, absorbance |  |  | IC50 | 2620 nM |
| Nc1ncc(-c2nc(N3CCOCC3)nc(N3CCOCC3)n2)c(C(F)F)n1 | ULK1 (Homo sapiens, UniProt O75385) | binding, competition with immobilised ligand |  | 10 µM | remaining binding | 57% |
| CN1CCC[C@H]1c1cccnc1 | CHRM4 (Homo sapiens, UniProt P08173) | ligand displacement |  | 50 µM | inhibition | -7.23% |
| N=C(N)NCCCCC(=O)N[C@@H](CCC(N)=O)C(=O)N[C@@H](Cc1ccccc1)C(=O)N[C@@H](CCCNC(=N)N)C(=O)c1nc2ccccc2s1 | TMPRSS2 | enzyme activity, inhibitor |  | 1 nM | activity vs control | 32% |
| Oc1ccc(CCc2cc(O)cc(O)c2)cc1 | CTSL | enzyme activity, inhibitor |  | 100 µM | remaining activity | 48.3% |
| [2H]c1c([2H])c([C@]2([2H])CCCN2C(=O)C(C)(C)Oc2ccc3cn[nH]c3c2)c([2H])c([2H])c1C([2H])([2H])[2H] | IGF1R (Homo sapiens, UniProt P08069) | binding, competition with immobilised ligand |  | 1 µM | remaining binding | 81% |
| Oc1cccc(N2[C@@H]3CC[C@H]2CN(CCCc2ccccc2)C3)c1 | OPRD1 (Homo sapiens, UniProt P41143) | cAMP, agonist |  |  | Emax | 56.8% |
| N=C(N)NCCC[C@H](NC(=O)[C@H](Cc1ccccc1)NC(=O)CCCC(N)=O)C(=O)c1nc2ccccc2s1 | TMPRSS2 | enzyme activity, inhibitor |  | 1 nM | activity vs control | 58% |
| NC(=O)C1=CN([C@@H]2O[C@H](COP(=O)(O)OP(=O)(O)OC[C@H]3O[C@@H](n4cnc5c(N)ncnc54)[C@H](OP(=O)(O)O)[C@@H]3O)[C@@H](O)[C@H]2O)C=CC1 | DHFR (Homo sapiens, UniProt P00374) | enzyme activity, substrate, absorbance |  |  | Km | 10.7 µM |
| Cc1nn(C)cc1-c1nc2c(N3CCN(Cc4ccc(Cl)cc4)CC3)c(Cl)cnc2[nH]1 | KIT (Homo sapiens, UniProt P10721, V559D/V654A) | binding, competition with immobilised ligand |  | 1 µM | remaining binding | 83% |
| N.N.[Cl][Pt][Cl] | Pfeiffer | cell growth or viability, ATP luminescence |  | 72 h | IC50 | 5420 nM |
| CCN(CC)CCCC[C@H](NC(=O)[C@H](CC(C)C)NC(=O)[C@H](C)NC(=O)[C@H](Cc1ccccc1)NC(=O)c1ccc(C(C)(C)C)cc1)C(=O)N[C@@H](CO)C(=O)OC | Bromodomain-containing protein 3, BD2 (BRD3, Homo sapiens, UniProt Q15059) | thermal stability, DSF |  | 25 µM | ΔTm | 0.33 °C |
| CC(=O)N[C@@H](CCC(N)=O)C(=O)N[C@@H](Cc1ccccc1)C(=O)N[C@H](CCCNC(=N)N)C(=O)c1nccs1 | TMPRSS2 | enzyme activity, inhibitor |  | 1 nM | activity vs control | 55% |
| CC(C)C[C@H](NC(=O)[C@H](Cc1ccccc1)NC(=O)[C@H](Cc1ccccc1)NC(=O)Cc1ccc(-c2ccccc2)cc1)C(=O)N[C@@H](CCCCN)C(=O)N[C@@H](CCCNC(=N)N)C(=O)N[C@H](C(=O)N[C@@H](Cc1c[nH]c2ccccc12)C(=O)N[C@@H](CCCCN)C(=O)N[C@@H](CCCNC(=N)N)C(=O)O)C(C)C |  | metabolic stability, mass spectrometry | human, liver microsomes | 30 min | compound remaining | 29.4% |
| COC(=O)c1cc(-c2cccc(NC(=S)Nc3ccccc3)c2)on1 | Mycolicibacterium fortuitum | microbial growth, broth dilution | ATCC6841 | 48 h | MIC | > 64 µg/mL |
| CC(C)[C@H](NC(=O)[C@H](Cc1ccc(O)cc1)NC(=O)[C@@H](N)Cc1ccc(O)cc1)C(=O)N[C@H](CCCNC(=N)N)C(=O)c1nc2ccccc2s1 | TMPRSS2 | enzyme activity, inhibitor |  | 1 nM | activity vs control | 71% |
| c1cncc([C@@H]2CCCN2)c1 | HTR6 (Homo sapiens, UniProt P50406) | ligand displacement |  | 50 µM | inhibition | 5% |
| CC(C)CC(=O)N[C@@H](CCC(N)=O)C(=O)N[C@@H](Cc1ccccc1)C(=O)N[C@@H](CCCNC(=N)N)C(=O)c1nc2ccccc2s1 | TMPRSS2 | enzyme activity, inhibitor |  | 1 nM | activity vs control | 14% |
| O=C/C=C/c1ccccc1 | CTSL | enzyme activity, inhibitor |  | 100 µM | remaining activity | 39.7% |
| CC[C@H](C)[C@@H](NC(=O)[C@H](CCc1ccccc1)NC(=O)CCc1ccccc1)C(=O)N[C@@H](CCCNC(=N)N)C(=O)c1nc2ccccc2s1 | TMPRSS2 | enzyme activity, inhibitor |  | 1 nM | activity vs control | 97% |
| CN1C(=S)N(c2ccccc2)C(=O)/C1=C1/C(=O)N(C)c2ccc(Cl)cc21 | ACHE (Homo sapiens, UniProt P22303) | enzyme activity, inhibitor, Ellman |  | 0.1 µM | inhibition | 13% |
| CCCCCCCCC(=O)NC(CCCNC(=N)N)C(=O)N[C@@H](CCC(N)=O)C(=O)N[C@@H](Cc1ccccc1)C(=O)N[C@@H](CCCNC(=N)N)C(=O)c1nc2ccccc2s1 (stereo partly drawn) | TMPRSS2 | enzyme activity, inhibitor |  | 1 nM | activity vs control | 80% |
| C#Cc1n[nH]c2c(-c3cn([C@@H](C)c4ccccn4)c(=O)[nH]c3=O)cc(F)cc12 | PRKDC (Homo sapiens, UniProt P78527) | enzyme activity, inhibitor |  | 0.1 µM | inhibition | -3.2% |
